Assay results pooled from the literature.
Compare with care: the assays were run in different laboratories. Several values in a cell are separate wells, animals, samples, runs or records. Numbers after ± are the reported error. ≈ marks a conversion by molar mass, not a printed value.
GBA2: Beta-glucosidase (GBA2, Homo sapiens, UniProt Q9HCG7)
Sequence of UniProt Q9HCG7 (whole entry, looked up): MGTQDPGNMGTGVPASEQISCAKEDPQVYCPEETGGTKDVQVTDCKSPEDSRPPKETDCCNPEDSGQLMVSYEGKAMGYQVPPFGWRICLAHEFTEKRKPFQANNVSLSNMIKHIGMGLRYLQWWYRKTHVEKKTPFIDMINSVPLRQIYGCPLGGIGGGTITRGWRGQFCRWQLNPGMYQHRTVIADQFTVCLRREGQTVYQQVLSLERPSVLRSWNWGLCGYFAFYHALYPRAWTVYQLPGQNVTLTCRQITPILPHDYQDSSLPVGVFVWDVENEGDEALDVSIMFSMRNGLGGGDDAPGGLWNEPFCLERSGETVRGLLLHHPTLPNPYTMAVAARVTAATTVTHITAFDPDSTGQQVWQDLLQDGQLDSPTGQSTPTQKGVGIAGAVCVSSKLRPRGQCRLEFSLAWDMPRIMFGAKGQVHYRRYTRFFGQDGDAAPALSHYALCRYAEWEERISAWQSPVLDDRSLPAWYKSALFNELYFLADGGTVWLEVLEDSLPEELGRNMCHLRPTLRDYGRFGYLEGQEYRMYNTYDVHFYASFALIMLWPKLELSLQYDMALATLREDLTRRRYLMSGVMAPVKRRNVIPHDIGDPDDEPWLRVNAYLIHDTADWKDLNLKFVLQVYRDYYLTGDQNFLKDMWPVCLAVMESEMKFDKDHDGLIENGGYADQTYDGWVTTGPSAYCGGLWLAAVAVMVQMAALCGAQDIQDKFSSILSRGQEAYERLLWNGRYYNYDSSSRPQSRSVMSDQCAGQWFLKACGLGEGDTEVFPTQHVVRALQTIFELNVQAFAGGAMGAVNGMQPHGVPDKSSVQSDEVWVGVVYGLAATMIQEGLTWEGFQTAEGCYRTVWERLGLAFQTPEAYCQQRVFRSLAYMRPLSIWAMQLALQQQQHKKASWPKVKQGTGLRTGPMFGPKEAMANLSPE

SMILES	tested on	test	test system	conditions	scale	endpoint	value
CCCCCOCCCCCN1C[C@H](O)[C@@H](O)[C@H](O)[C@H]1CO	GBA2	inhibitor, 4MU-β-D-glucopyranoside	HEK293T homogenates overexpressing GBA2	–	reference: GCS IC50 over GBA2 IC50	selectivity ratio	50
CCCCN1C(=O)c2cccc3c(NCCCCCN4CCOCC4)ccc(c23)C1=O	–	–	water	pH 6.0	–	molar extinction coefficient	11600 M⁻¹ cm⁻¹
CCC(CC)CNC(=N)NC(=N)NCCCCCCNC(=N)NC(=N)NCC(CC)CC	–	metabolic stability	dog, liver microsomes	2 µM	–	microsomal CLint	0.73 µL/min/mg
C=CC(=O)Nc1cc(Nc2nccc(-c3c[nH]c4ccccc34)n2)c(OC)cc1N(C)CCN(C)C	–	–	human plasma	24 h, storage stability, LLOQ sample	–	recovery	55.4%
CCCCN1C(=O)c2cccc3c(NCCCCN4CCOCC4)ccc(c23)C1=O	–	–	methanol	–	–	molar extinction coefficient	7400 M⁻¹ cm⁻¹
COC1CN([C@H]2CC[C@H]([C@@]3(C)Oc4c(Cl)cc(C(=O)NCc5c(SC)cc(C)[nH]c5=O)c(C)c4O3)CC2)C1	–	RNA-seq, measured: RYR1	human, whole blood	dose not given, 24 h	reference: pretreatment baseline	log2 fold change	1.16
NCCCC[C@H](NC(=O)[C@@H](N)Cc1c[nH]c2ccccc12)C(=O)N[C@@H](Cc1c[nH]c2ccccc12)C(N)=O	–	membrane permeation, tryptophan fluorescence	DOPC large unilamellar vesicles	pH 7.2	–	mean first passage time	~22 min
O=C(Nc1cnccc1-c1ccc([18F])cc1)c1ccnc(NC(=O)C2CC2)c1	–	ex vivo gamma counting	FVB/NJ mice, both sexes, brain stem	intravenous, 120 min	–	mean SUV	0.06
CCN(CC)c1ccc2c(c1)O[B-]1(c3c(C)cccc3C)OC(=O)C(c3ccccc3)=N[N+]1=C2 (stereo not drawn)	–	–	toluene	–	–	molar absorption coefficient	52000 M⁻¹ cm⁻¹
CC(C)[C@H](NC(=O)[C@H](Cc1c[nH]c2ccccc12)NC(=O)[C@H](CCCNC(=N)N)NC(=O)[C@H](CCCNC(=N)N)NC(=O)[C@@H](NC(=O)[C@@H](NC(=O)[C@H](CCCNC(=N)N)NC(=O)[C@@H](NC(=O)[C@@H](NC(=O)[C@H](CCCNC(=N)N)NC(=O)[C@H](CCCNC(=N)N)NC(=O)[C@@H](NC(=O)[C@H](Cc1c[nH]c2ccccc12)NC(=O)[C@H](CCCNC(=N)N)NC(=O)[C@H](CCCNC(=N)N)NC(=O)[C@@H](NC(=O)[C@H](CCCNC(=N)N)NC(=O)[C@H](CCCNC(=N)N)NC(=O)[C@@H](NC(=O)[C@H](Cc1c[nH]c2ccccc12)NC(=O)[C@H](CCCNC(=N)N)NC(=O)[C@@H](N)CCCNC(=N)N)C(C)C)C(C)C)C(C)C)C(C)C)C(C)C)C(C)C)C(C)C)C(=O)N[C@@H](CCCNC(=N)N)C(=O)N[C@@H](CCCNC(=N)N)C(=O)O	–	–	CD1 mouse, plasma	intravenous, 15 mg/kg, 16 h, [14C]-labelled compound	–	total CO2	23.7 mEq/L
COC(=O)[C@@]1(C(C)C)C=C(C(=O)Nc2cccc(C(=O)Nc3ccc(Nc4nccc(-c5cccnc5)n4)c(C)c3)c2)C(=O)CC1	–	–	rat, plasma	1 µM, 30 min	–	compound remaining	99% and 93.5%
CCC1=[N+]2N=C(/C=C/c3ccccc3)C(=O)O[B-]2(c2ccccc2)Oc2cc(N(CC)CC)ccc21 (stereo not drawn)	–	–	toluene	–	–	molar absorption coefficient	58000 M⁻¹ cm⁻¹
C=C[C@]1(C)C[C@@H](OC(=O)CSc2ccc(NC(=O)c3ccco3)cc2)[C@]2(C)[C@H](C)CC[C@]3(CCC(=O)[C@H]32)[C@@H](C)[C@@H]1O	–	–	M. gallisepticum-infected chickens, plasma	intramuscular, 80 mg/kg single dose	–	Tmax	18 min
CN1CCC[C@]1(C)/C=C/S(=O)(=O)NC(=O)Nc1c2c(cc3c1C(O)CC3)CCC2 (stereo partly drawn)	–	–	human, plasma	oral, 12.5 mg twice daily of parent drug, day 14, metabolite of dosed drug	–	AUC(0-t)	78700 ng·h/mL
COc1cccc(OC)c1-c1cc(C(=O)NC2(C(=O)O)C3CC4CC(C3)CC2C4)nn1-c1ccc(C(=O)N(C)CCOCCOCCN(C)C(=O)[C@H](CCCCNC(=O)[C@H](CC(C)C)NC(=O)C2OC2C(=O)O)NC(=O)CN2CCN(CC(=O)[O-])CCN(CC(=O)[O-])CCN(CC(=O)[O-])CC2)cc1C(C)C.[177Lu+3] (mixture of isomers)	–	–	mouse, HT-29 xenograft	24 h post injection, biodistribution	reference: tumour over brain uptake	tumour-to-brain ratio	72.6
O=C(CCc1ccc(CNC(C(=O)OC2CCCC2)C2CCCCC2)cn1)NO (stereo not drawn)	–	–	healthy male humans, plasma	oral, 20 mg, single dose	reference: fed over fasted	AUC(0-t) ratio	1.49
O=C1CCC(N2Cc3cc(C(=O)O)c(F)cc3C2=O)C(=O)N1 (stereo not drawn)	–	–	cynomolgus monkey, male	oral, 0.3 mg/kg parent drug, 24 h	–	plasma concentration	0.34 ± 0.16 ng/mL
CCC(C(=O)Nc1ccc(C(N)=O)c(F)c1)n1cc(OC)c(-c2cc(Cl)ccc2-n2cc(C(F)(F)F)nn2)cc1=O (stereo not drawn)	–	–	healthy male humans	50 mg, IR formulation, fasted	–	mild adverse events	6.7%
CC(C)C[C@H](NC(=O)[C@@H](CCCCNC(=O)[C@@H](Cc1ccccc1)NC(=O)CCCCCCCNC(=O)CN1CCN(CC(=O)O)CCN(CC(=O)O)CCN(CC(=O)O)CC1)NC(=O)[C@H](Cc1ccc(O)cc1)NC(=O)[C@H](CO)NC(=O)[C@H](Cc1c[nH]c2ccccc12)NC(=O)[C@H](Cc1c[nH]cn1)NC(=O)[C@@H]1CCC(=O)N1)C(=O)N[C@@H](CCCNC(=N)N)C(=O)N1CCC[C@H]1C(=O)NCC(N)=O [indium-111 labelled]	–	biodistribution	male athymic nude mice, DU-145 prostate cancer xenograft, stomach	intravenous, 0.037 MBq, 2 h post-injection	–	tissue uptake	0.26 ± 0.15 %ID/g
CCCCN1C(=O)c2cccc3c(NCCCN4CCOCC4)ccc(c23)C1=O	–	–	DMSO	–	–	molar extinction coefficient	5270 M⁻¹ cm⁻¹
OC[C@H]1[C@@H](O)[C@H](O)[C@@H](O)CN1CCCCCOCC1CCCCC1	GBA2	inhibitor, 4MU-β-D-glucopyranoside	HEK293T homogenates overexpressing GBA2	–	–	IC50	6 nM

SMILES	tested on	test	test system	conditions	scale	endpoint	value
CC(=O)N([O-])CCCCCNC(=O)CCC(=O)N([O-])CCCCCNC(=O)CCC(=O)N([O-])CCCCCN.[89Zr+4]	–	radio-TLC	aqueous buffer	7 d, pH 8.5, 37 °C, 89Zr-labelled complex, added: DTPA 1000-fold excess	–	intact complex	77.3 ± 1.4%
Cc1c(C(N)=O)cc(Cl)c2c1O[C@@](C)([C@H]1CC[C@H](N(C)C)CC1)O2	–	radiochromatography	human, urine	oral, 200 mg	reference: dose	urinary excretion	1% and 0.6% and 0.8%
C/C(N)=N/C(=N\S(=O)(=O)c1ccc(C(F)(F)F)cc1)N1C[C@H](c2ccccc2)C(c2ccc(Cl)cc2)=N1	–	–	Sprague-Dawley rat, male, plasma	intravenous, 2 mg/kg	–	AUC(0-inf)	2800 ng·h/mL
O=C1NC2(CC2)COc2ncc(F)cc2[C@H]2COCCN2c2ccn3ncc1c3n2	–	bone marrow micronucleus test	NIH mice, female	oral, 20 mg/kg/day, 3 days	–	PCE/(PCE+NCE) ratio	0.495 ± 0.041
CC(C)(O)c1ncc([S@](N)(=O)=NC(=O)Nc2c3c(cc4c2CCC4)CCC3)s1	–	measured: reproductive, breast disorders	healthy human	oral, dose not given, 14 days, all active multiple doses pooled	–	subjects with TEAEs	5%
CCCC[C@H](OC(C)=O)c1ccccc1C(=O)O	–	–	beagle dogs, both sexes, whole blood	intravenous, 0.5 mg/kg single dose	–	clearance	20.5 ± 2.13 mL/min/kg
CCc1cnc(NC(=O)c2cc(S(=O)(=O)N3CCOCC3)ccc2N(C)C2CCCC2)s1	–	–	mouse	10 mg/kg, 3 doses	–	mean corpuscular haemoglobin	16.3 pg
OCCCN1CC[C@@H]2C[C@H]1c1cc(-c3ccc(C(F)(F)F)cc3)ccc12	–	–	plasma	ip, concentration not given	–	Tmax	30 min
CCCCN1C(=O)c2cccc3c(NCCCCCCCCN4CCOCC4)ccc(c23)C1=O	–	–	acetonitrile	–	–	molar extinction coefficient	11800 M⁻¹ cm⁻¹
Cc1ccc(C(NC(=O)c2cc(-c3ccccc3)n(-c3ccccc3)n2)c2ccncc2)cc1 (stereo not drawn)	–	–	PBS	pH 7.4	–	thermodynamic solubility	0.44 µg/mL (≈ 0.99 µM)
COCC1CN(C2CCN(c3cc(OC)c(Nc4ncc(Br)c(Nc5ccc6c(c5P(C)(C)=O)OCCO6)n4)cc3C)CC2)C1	–	first-in-human trial	human	oral, 60 mg once daily	any treatment-related	adverse events	57.1%
N#C[C@@H]1CC(F)(F)CN1C(=O)CNC(=O)c1ccnc2c(NC(=O)CCOCCOCCOCCOCCOCCOCCNC(=O)[C@H](CCCCNC(=O)CN3CCN(CC(=O)[O-])CCN(CC(=O)[O-])CCN(CC(=O)[O-])CC3)NC(=O)CCCc3ccc(I)cc3)cccc12.[177Lu+3]	–	–	mouse, U-87 MG tumour xenograft, spleen	1 h	–	tissue uptake	1.09 ± 0.17 %ID/g
COc1ccc([C@@H]2CC(=O)c3c(O)cc(O[C@@H]4O[C@H](CO)[C@@H](O)[C@H](O)[C@H]4O[C@@H]4O[C@@H](C)[C@H](O)[C@@H](O)[C@H]4O)cc3O2)cc1O	–	LC-MS/MS	Sprague-Dawley rat, male, obese, plasma	intravenous, 4 mg/kg	–	half-life	501 ± 418 min
CCC1CNC(CC)CN(C(C(=O)[O-])c2ccc(C(=O)[O-])cc2)C(CC)CN(CC(=O)[O-])C(CC)CN1.[Mn+2] (stereo not drawn)	–	ICP-MS	BALB/c mouse, kidney	intravenous, 0.05 mmol/kg, 30 min, without anaesthesia	–	Mn content	2.39 ± 0.23 µg/g
O=C(Nc1cnccc1-c1ccc([18F])nc1)c1ccnc(NC(=O)C2CC2)c1	–	PET imaging	FVB/NJ mice, both sexes, liver	intravenous, 120 min post-injection, P-gp inhibited, added: tariquidar 15 mg/kg iv, 2 h before	–	SUV	5.02
CC[C@H](C)[C@@H]1NC(=O)[C@H](Cc2ccc(O)cc2)NC(=O)CCCSC[C@@H](C(=O)N(CC(=O)N[C@@H](CC(C)C)C(=O)NCC(N)=O)Cc2ccc(F)cc2)NC(=O)[C@H](CC(N)=O)NC(=O)[C@H](CCC(N)=O)NC1=O	–	–	human	intranasal	reference: intravenous	bioavailability	3.7%
Cc1n[nH]c(C)c1CCCOc1cc(C(=O)NCCCCC(NC(=O)CN2CCN(CC(=O)[O-])CCN(CC(=O)[O-])CCN(CC(=O)[O-])CC2)C(=O)NCC2CCC(C(=O)NC(Cc3ccc4ccccc4c3)C(=O)NCCCCC(NC(=O)NC(CCC(=O)O)C(=O)O)C(=O)O)CC2)ccc1F.[68Ga+3] (stereo not drawn)	–	micro-PET/CT	mouse 22Rv1 xenograft, tumour	4 h post-injection	–	mean tumour uptake	12.3 ± 0.9 %ID/g
CCCCN1C(=O)c2cccc3c(NCCCCCCN4CCOCC4)ccc(c23)C1=O	–	–	toluene	–	–	molar extinction coefficient	12100 M⁻¹ cm⁻¹
Cc1ccc(OCC(=O)N(Cc2cccs2)c2ccn[nH]2)cc1	–	–	rat plasma	750 ng/mL, 0.5 h, 37 °C, unit not given	reference: time zero	remaining compound	1.3
C=C(NC(=O)c1csc(-c2nc3c(cc2O)-c2nc(cs2)C(=O)NC(C(C)O)C(=O)NC(=C(C)OC)c2nc(cs2)C(=O)NC2c4nc(cs4)C(=O)NC(COC(=O)c4c5c6c(cccc6n4O)COC(=O)C(OC4CC(C)(O)C(N(C)C)C(C)O4)C2OC5)c2nc-3cs2)n1)C(N)=O (stereo not drawn)	–	–	Sprague-Dawley rat, male, plasma	intravenous infusion, 6 mg/kg, multiple doses, day 7	–	half-life	436 min
Nc1nc(-c2ccccc2)nc2[nH]nc(Nc3ccccc3)c12	–	–	plasma	time not given, plasma protein binding	–	recovery	86.7%

A few entries again:
SMILES	tested on	test	test system	conditions	scale	endpoint	value
O=C1NC2(CC2)COc2ncc(F)cc2[C@H]2COCCN2c2ccn3ncc1c3n2	–	bone marrow micronucleus test	NIH mice, female	oral, 20 mg/kg/day, 3 days	–	PCE/(PCE+NCE) ratio	0.495 ± 0.041
CN1CCC[C@]1(C)/C=C/S(=O)(=O)NC(=O)Nc1c2c(cc3c1C(O)CC3)CCC2 (stereo partly drawn)	–	–	human, plasma	oral, 12.5 mg twice daily of parent drug, day 14, metabolite of dosed drug	–	AUC(0-t)	78700 ng·h/mL
CC[C@H](C)[C@@H]1NC(=O)[C@H](Cc2ccc(O)cc2)NC(=O)CCCSC[C@@H](C(=O)N(CC(=O)N[C@@H](CC(C)C)C(=O)NCC(N)=O)Cc2ccc(F)cc2)NC(=O)[C@H](CC(N)=O)NC(=O)[C@H](CCC(N)=O)NC1=O	–	–	human	intranasal	reference: intravenous	bioavailability	3.7%
OCCCN1CC[C@@H]2C[C@H]1c1cc(-c3ccc(C(F)(F)F)cc3)ccc12	–	–	plasma	ip, concentration not given	–	Tmax	30 min
COCC1CN(C2CCN(c3cc(OC)c(Nc4ncc(Br)c(Nc5ccc6c(c5P(C)(C)=O)OCCO6)n4)cc3C)CC2)C1	–	first-in-human trial	human	oral, 60 mg once daily	any treatment-related	adverse events	57.1%
